Published values collected from several papers.
Lines come from different studies, so protocols differ.

The IC50 of C[C@H](NC(=O)[C@H](CCCNC(=N)N)NC(=O)[C@H](CCCNC(=N)N)NC(=O)[C@@H]1CCCN1C(=O)CNC(=O)[C@H](CCCNC(=N)N)NC(=O)[C@H](CCCNC(=N)N)NC(=O)CN)C(=O)N[C@@H](CC(N)=O)C(=O)N[C@@H](CCC(N)=O)C(=O)N[C@@H](CC(N)=O)C(=O)NCC(=O)N[C@H](C(=O)N[C@@H](CCCNC(=N)N)C(=O)N[C@@H](CCCNC(=N)N)C(=O)N[C@@H](CCCNC(=N)N)C(=O)N[C@@H](CCCNC(=N)N)C(=O)N[C@@H](CCCNC(=N)N)C(=O)N[C@@H](CCCNC(=N)N)C(=O)N[C@H](C(N)=O)[C@@H](C)O)[C@@H](C)O is reported as > 100 µM (SK-BR-3; cell viability, CellTiter-Blue; 24 h, serum-free medium).
Cc1nn(-c2ccccc2)c(O)c1C(c1ccc([N+](=O)[O-])cc1)c1c(C)nn(-c2ccccc2)c1O has an IC50 of > 40 µM (Ishikawa; cell growth or viability, MTT; 48 h).
For C=C(C(=O)O)[C@@H]1CC[C@@]2(C)CCC(=O)C(C)=C2[C@H]1O, the IC50 was > 10 µM (human Neutrophil; superoxide release, inhibitor, absorbance).
Cc1cc(C)c(-n2ccn(-c3c(C)cc(C)cc3C)c2=[Se])c(C)c1.[Cl][Ag] has an IC50 of 0.3 µM (PSN1; cell growth or viability, MTT; 72 h).
C[C@@H]1CCC2[C@@H](C)[C@@H](OCCC[P+](c3ccccc3)(c3ccccc3)c3ccccc3)O[C@@H]3O[C@@]4(C)CCC1[C@@]23OO4 (some centres unmarked) gave an IC50 of 0.134 µM (OVCAR-3; cell growth or viability, MTT; 72 h).
The IC50 of N.N.O=C([O][Pt]([Cl])([Cl])[O]C(=O)c1ccc(P(c2ccccc2)c2ccccc2)cc1)c1ccc(P(c2ccccc2)c2ccccc2)cc1.[Cl][Au].[Cl][Au] is reported as 3.21 µM (CAKI-1; cell growth or viability, resazurin; 72 h).
CNC(=O)c1cc(Oc2ccc(NC(=O)c3ccc(-c4cccc(COC(=O)CCC(=O)OC5OC6OC7(C)CCC8C(C)CCC(C5C)C68OO7)c4)cn3)cc2)ccn1 (centres unmarked) has an IC50 of 2.25 µM (Huh-7; cell growth or viability, MTT; 72 h).
With CCCC[C@@H]1NC(=O)CN(S(C)(=O)=O)CCNC(=O)[C@H](CCCCN)NC(=O)[C@H](CC(C)C)NC(=O)[C@H](CCCCN)NC(=O)[C@H](CC(C)C)NC(=O)[C@H](CCCCN)NC(=O)COC[C@H]2CCCN2C(=O)[C@H](Cc2c[nH]c3ccccc23)NC(=O)[C@H](C)NC(=O)[C@H](C(C)C)NC(=O)[C@H](C)NC1=O the IC50 was 11.5 µM (NCI-H929; viability, TO-PRO-3 staining, flow cytometry).
For CC[C@H](C)[C@@H]1NC(=O)[C@@H]2CCCN2C(=O)[C@@H]2CCCN2C(=O)[C@H]([C@@H](C)CC)NC(=O)[C@H](CO)NC(=O)[C@H](CCCCN)NC(=O)[C@H]([C@@H](C)O)NC(=O)[C@@H]2CSSC[C@H](NC1=O)C(=O)N[C@@H](Cc1ccccc1)C(=O)N1CCC[C@H]1C(=O)N[C@@H](CC(=O)O)C(=O)NCC(=O)N[C@@H](CCCNC(=N)N)C(=O)N2, the IC50 was > 100 µM (Calu-3; cell growth or viability, ATP luminescence; 72 h).
CN(C)C(=O)c1cncc(N2Cc3cnn(Cc4ccc(F)cc4)c3C2)n1 gave an IC50 of 0.2 µM (HEK293 expressing GluA1 and GluA2; cell death, CellTox Green; 24 h, added: glutamate, AMPA 10 µM).
For COc1c(Oc2c(O)c(OC)c(OC)c3c2ccc2cc(O)ccc23)cc2c(c1OC)-c1ccc(O)cc1CC2, the IC50 was 21.8 µM (EA.hy 926; cell growth or viability, CCK-8; 24 h).

A few entries again:
With CCCC[C@@H]1NC(=O)CN(S(C)(=O)=O)CCNC(=O)[C@H](CCCCN)NC(=O)[C@H](CC(C)C)NC(=O)[C@H](CCCCN)NC(=O)[C@H](CC(C)C)NC(=O)[C@H](CCCCN)NC(=O)COC[C@H]2CCCN2C(=O)[C@H](Cc2c[nH]c3ccccc23)NC(=O)[C@H](C)NC(=O)[C@H](C(C)C)NC(=O)[C@H](C)NC1=O the IC50 was 11.5 µM (NCI-H929; viability, TO-PRO-3 staining, flow cytometry).
For C=C(C(=O)O)[C@@H]1CC[C@@]2(C)CCC(=O)C(C)=C2[C@H]1O, the IC50 was > 10 µM (human Neutrophil; superoxide release, inhibitor, absorbance).
